Measurements of several laboratories.
Every numbered part comes from another study and shows a few of its results, in no order. Substitutions count along the parent as printed.

Study 1 — target: CCNE1, cyclin fold, Cln2 fusion (human); technique: yeast growth competition, sequencing; medium: yeast; notes: strong parent motif; baseline: not given; direction: higher = stronger binding
Starting sequence: BRCA2 docking peptide (human); PSIKRNLLNEFDR
| Variant | normalised enrichment score |
| --- | --- |
| PSIKRNLLNEFDT [R13T] | 2.04 |
| PSIKRNLLNEFKR [D12K] | 0.616 |
| PSSKRNLLNEFDR [I3S] | 1.27 |

Study 2 — technique: universal PBM; molecule type: double-stranded DNA, one strand shown; medium: in vitro; tested at: not given; direction: higher = stronger binding
Target: Sal-like protein 4, full length isoform B (SALL4, Homo sapiens, UniProt Q9UJQ4-2, residues 1-616)
Notes: 8-mer, flanks averaged, mean of replicates
| Oligonucleotide | E-score |
| --- | --- |
| CAGTACAC | -0.0784 |
| ACGACAGT | -0.0109 |
| ATTCTTGA | 0.209 |
| CTCAATTC | 0.0127 |

Study 3 — technique: protein binding microarray; molecule type: double-stranded DNA, one strand shown; medium: in vitro; tested at: not given; baseline: not given; direction: higher = stronger binding
Target: Histone acetyltransferase KAT6A, winged helix 2, GST fusion (KAT6A, Homo sapiens, UniProt Q92794, residues 85-181)
Notes: 8-mer, flanks averaged, mean of 2 arrays, mostly near background
Target sequence (chain): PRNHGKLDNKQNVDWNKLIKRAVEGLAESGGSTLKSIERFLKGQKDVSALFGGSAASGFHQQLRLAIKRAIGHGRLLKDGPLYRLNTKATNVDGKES
| Oligonucleotide | E-score |
| --- | --- |
| CGCGTCCG | 0.0377 |
| CCTGCCAC | -0.0881 |
| TCTGCACA | -0.0292 |
| CAAATGCC | 0.12 |

Mixed results
| Molecule | target | assay | system | conditions | scale | quantity | value |
| --- | --- | --- | --- | --- | --- | --- | --- |
| PhoQ, residues 284 288 289 292 302 303 AEGLLW | PhoP, residues 12 14 15 18 19 LYHSL (Escherichia coli, UniProt P23836) | Sort-seq, item: YFP reporter | E. coli | PhoQ-PhoP variant library, together with: 10 µM Mg2+ | baseline: high Mg2+ state, higher = stronger signaling | fold induction | 5.39 |

A few entries again (study 3):
| Oligonucleotide | E-score |
| --- | --- |
| TCTGCACA | -0.0292 |
